Published values collected from several papers.
Protocols differ between the studies behind these lines. Numbers after ± are the reported error.
OPRM1: Mu-type opioid receptor (OPRM1, Homo sapiens, UniProt P35372)
UniProt P35372, sequence (whole entry, looked up): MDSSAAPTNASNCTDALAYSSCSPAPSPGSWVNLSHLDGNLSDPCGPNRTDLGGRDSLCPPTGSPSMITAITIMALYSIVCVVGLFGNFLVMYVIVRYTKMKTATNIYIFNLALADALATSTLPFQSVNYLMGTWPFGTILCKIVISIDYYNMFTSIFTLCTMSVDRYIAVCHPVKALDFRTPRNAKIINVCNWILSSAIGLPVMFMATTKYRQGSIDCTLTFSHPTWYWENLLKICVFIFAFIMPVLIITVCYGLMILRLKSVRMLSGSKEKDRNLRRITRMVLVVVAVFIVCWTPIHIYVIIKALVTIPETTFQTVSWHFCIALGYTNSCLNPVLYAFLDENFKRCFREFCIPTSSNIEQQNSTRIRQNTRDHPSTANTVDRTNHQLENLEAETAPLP
CLPP: ATP-dependent Clp protease proteolytic subunit, mitochondrial (CLPP, Homo sapiens, UniProt Q16740)
UniProt Q16740, sequence (whole entry, looked up): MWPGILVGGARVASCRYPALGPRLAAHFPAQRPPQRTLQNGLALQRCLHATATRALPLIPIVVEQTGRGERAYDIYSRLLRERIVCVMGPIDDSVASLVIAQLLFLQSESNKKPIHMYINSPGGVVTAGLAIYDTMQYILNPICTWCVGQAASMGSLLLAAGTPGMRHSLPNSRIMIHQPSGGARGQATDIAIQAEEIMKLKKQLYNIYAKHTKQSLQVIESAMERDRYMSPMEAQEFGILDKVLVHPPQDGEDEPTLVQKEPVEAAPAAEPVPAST
Kir3.1/Kir3.4: Kir3.1/Kir3.4 (Homo sapiens, UniProt P48544+P48549)
UniProt P48544, sequence (whole entry, looked up): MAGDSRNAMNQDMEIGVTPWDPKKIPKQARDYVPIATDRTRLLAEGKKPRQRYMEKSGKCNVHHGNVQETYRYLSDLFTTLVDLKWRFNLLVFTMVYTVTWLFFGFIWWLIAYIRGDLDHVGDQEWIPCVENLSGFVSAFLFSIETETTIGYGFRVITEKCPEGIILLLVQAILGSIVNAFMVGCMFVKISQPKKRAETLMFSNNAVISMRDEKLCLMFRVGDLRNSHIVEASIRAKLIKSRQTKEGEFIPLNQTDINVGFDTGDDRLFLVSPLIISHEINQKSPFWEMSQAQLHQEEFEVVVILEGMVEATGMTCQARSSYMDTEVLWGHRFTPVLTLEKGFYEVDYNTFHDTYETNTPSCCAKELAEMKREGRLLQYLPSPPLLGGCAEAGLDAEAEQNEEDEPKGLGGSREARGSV
UniProt P48549, sequence (whole entry, looked up): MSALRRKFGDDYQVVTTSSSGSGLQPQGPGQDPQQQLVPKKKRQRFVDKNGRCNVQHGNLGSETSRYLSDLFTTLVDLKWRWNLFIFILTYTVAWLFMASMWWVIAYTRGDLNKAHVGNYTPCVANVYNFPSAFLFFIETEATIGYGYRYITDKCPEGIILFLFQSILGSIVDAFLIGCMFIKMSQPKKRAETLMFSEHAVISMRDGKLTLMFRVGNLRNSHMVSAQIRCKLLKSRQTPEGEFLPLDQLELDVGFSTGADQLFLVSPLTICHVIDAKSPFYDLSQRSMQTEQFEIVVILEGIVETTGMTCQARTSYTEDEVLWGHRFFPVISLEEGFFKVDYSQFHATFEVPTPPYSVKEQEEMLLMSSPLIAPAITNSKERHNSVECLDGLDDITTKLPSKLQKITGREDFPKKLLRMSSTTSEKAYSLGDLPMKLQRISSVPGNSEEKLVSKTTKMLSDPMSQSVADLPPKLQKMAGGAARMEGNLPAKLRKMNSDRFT
USP16 ZnF-UBD domain: Ubiquitin carboxyl-terminal hydrolase 16, ZnF-UBD domain (USP16, Homo sapiens, UniProt Q9Y5T5)
UniProt Q6NT16, sequence (whole entry, unmodified, looked up): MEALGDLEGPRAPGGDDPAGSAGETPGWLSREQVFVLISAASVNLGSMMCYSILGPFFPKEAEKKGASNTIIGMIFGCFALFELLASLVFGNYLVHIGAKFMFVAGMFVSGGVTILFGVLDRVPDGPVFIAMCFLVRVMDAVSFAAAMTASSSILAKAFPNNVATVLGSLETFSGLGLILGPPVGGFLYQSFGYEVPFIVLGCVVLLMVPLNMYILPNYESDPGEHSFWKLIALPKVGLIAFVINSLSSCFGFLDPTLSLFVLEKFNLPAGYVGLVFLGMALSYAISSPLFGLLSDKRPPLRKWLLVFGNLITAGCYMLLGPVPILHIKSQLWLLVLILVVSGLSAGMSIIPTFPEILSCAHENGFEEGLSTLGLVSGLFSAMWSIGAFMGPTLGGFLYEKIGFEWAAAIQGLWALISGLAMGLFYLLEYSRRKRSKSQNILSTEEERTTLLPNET
UniProt Q9Y5T5, sequence (whole entry, looked up): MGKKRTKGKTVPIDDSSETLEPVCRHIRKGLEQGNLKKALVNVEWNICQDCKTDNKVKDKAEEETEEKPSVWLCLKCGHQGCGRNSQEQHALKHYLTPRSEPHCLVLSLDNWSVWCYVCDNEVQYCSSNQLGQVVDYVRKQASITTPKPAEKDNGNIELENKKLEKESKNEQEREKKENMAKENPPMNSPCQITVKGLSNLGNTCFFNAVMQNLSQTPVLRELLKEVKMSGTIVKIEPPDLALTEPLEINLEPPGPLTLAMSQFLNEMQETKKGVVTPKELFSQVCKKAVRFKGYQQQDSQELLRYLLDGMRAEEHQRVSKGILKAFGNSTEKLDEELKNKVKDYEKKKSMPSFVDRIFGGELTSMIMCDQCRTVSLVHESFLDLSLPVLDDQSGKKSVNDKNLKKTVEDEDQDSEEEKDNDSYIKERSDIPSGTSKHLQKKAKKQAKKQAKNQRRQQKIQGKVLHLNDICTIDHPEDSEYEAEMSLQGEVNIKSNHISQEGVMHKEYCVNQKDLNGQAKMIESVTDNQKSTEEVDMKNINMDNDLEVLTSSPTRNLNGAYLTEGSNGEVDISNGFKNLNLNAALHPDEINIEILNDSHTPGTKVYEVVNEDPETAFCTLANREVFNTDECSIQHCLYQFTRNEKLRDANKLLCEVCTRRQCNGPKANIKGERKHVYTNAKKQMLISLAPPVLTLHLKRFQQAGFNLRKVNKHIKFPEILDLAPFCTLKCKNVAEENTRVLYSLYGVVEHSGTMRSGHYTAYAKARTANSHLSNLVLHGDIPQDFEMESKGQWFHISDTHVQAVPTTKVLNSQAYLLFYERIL
UniProt Q8CIQ6, sequence (whole entry, looked up): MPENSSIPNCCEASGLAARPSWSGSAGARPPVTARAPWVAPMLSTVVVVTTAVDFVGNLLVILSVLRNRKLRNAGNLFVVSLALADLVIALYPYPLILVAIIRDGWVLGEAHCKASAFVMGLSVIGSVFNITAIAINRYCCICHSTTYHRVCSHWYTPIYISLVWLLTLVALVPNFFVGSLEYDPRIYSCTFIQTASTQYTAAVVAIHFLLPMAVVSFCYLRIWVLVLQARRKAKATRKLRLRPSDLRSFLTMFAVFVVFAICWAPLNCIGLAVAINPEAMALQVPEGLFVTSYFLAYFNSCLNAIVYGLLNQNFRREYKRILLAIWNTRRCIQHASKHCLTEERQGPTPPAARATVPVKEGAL
UniProt P28221, sequence (whole entry, looked up): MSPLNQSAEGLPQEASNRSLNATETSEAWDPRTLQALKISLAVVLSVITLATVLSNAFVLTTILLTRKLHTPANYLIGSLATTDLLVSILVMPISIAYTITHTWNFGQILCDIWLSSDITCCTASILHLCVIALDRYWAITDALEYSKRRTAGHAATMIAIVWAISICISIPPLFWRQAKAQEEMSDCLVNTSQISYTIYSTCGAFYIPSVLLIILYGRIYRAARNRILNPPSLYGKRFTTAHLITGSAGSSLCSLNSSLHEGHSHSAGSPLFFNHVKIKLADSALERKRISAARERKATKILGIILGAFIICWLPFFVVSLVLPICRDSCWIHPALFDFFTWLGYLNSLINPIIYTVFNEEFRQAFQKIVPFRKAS
UniProt Q9UK80, sequence (whole entry, looked up): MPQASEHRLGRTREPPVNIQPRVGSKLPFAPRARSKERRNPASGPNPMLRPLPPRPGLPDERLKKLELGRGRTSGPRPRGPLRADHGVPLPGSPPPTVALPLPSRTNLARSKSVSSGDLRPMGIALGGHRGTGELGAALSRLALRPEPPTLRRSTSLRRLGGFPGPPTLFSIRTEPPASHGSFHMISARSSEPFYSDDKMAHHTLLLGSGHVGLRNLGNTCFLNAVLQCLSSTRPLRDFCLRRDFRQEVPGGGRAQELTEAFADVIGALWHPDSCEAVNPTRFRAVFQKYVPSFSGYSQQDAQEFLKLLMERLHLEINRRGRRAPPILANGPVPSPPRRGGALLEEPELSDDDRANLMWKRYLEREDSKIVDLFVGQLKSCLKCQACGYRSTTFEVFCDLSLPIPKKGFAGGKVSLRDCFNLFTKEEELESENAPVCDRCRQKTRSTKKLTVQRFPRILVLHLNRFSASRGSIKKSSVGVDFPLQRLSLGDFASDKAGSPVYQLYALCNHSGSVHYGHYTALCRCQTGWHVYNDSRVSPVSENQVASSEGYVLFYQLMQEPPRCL
UniProt Q99571, sequence (whole entry, looked up): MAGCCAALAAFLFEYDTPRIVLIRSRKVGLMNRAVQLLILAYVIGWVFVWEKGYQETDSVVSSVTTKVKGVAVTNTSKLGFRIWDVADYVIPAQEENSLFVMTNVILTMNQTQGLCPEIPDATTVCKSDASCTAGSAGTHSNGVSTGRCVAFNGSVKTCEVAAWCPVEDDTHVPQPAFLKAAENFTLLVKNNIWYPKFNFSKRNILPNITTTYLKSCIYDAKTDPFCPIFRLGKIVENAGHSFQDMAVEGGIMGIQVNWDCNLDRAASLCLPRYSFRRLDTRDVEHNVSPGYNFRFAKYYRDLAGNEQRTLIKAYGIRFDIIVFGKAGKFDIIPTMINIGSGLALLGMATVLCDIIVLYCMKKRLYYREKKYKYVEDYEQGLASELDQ
UniProt P34995, sequence (whole entry, unmodified, looked up): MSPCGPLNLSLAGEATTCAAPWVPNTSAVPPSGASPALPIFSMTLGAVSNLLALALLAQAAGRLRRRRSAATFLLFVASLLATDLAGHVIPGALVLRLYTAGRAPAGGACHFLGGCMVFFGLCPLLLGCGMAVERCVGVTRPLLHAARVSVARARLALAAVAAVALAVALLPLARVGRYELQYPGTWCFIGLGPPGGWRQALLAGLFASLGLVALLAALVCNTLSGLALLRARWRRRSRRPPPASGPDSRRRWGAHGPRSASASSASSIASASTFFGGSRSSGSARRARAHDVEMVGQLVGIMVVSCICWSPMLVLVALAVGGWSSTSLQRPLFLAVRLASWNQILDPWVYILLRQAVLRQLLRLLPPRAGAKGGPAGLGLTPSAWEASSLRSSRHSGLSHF

CCn1c(-c2nc3cc(C(=O)N4CCC[C@@H](N)C4)cc(OC)c3n2C)cc2cccnc21  EC50 (OPRM1; agonist, GTPγS binding): > 100 µM
C[C@H]1C2=C(CCN1Cc1cccc(C#N)c1)N1CCN=C1N(Cc1ccc(Br)cc1)C2=O  EC50 (CLPP; peptidase activity, activator; with: Ac-WLA-AMC): 0.739 ± 0.0104 µM
Cc1cc(NC(=O)C2CCc3cc(Cl)ccc3O2)n(C2CCS(=O)(=O)C2)n1 (stereo not drawn)  EC50 (Kir3.1/Kir3.4; activator, thallium flux; HEK293): 5.58 µM
CC#CCC(C)[C@H](O)/C=C/[C@@H]1[C@H]2c3cccc(CCCC(=O)O)c3O[C@H]2C[C@H]1O (mixture of isomers)  EC50 (PTGIR (Homo sapiens, UniProt P43119); agonist, cell-based): 0.771 µM
C[C@@H]1CC2=C(CN1Cc1cccc(C#N)c1)C(=O)N(Cc1ccc(F)c(C(F)(F)F)c1)C1=NCCN12  EC50 (CLPP; peptidase activity, activator; with: Ac-WLA-AMC): 0.0599 ± 0.0009 µM
Clc1ccccc1C(c1ccccc1)(c1ccccc1)n1ccnc1  EC50 (NR1I2 (Homo sapiens, UniProt O75469); agonist; 120 min, pH 7.5): 1.85 µM
C[C@@H]1CC2=C(CN1Cc1cccc(C#N)c1)C(=O)N(Cc1ccc3ccccc3c1)C1=NCCN12  EC50 (CLPP; peptidase activity, activator; with: Ac-WLA-AMC): 0.0777 ± 0.0156 µM
COc1cc2c(cc1OC)[C@H]1C[C@@H](O)[C@H](CC(C)C)CN1CC2  Kd (MFS-type transporter SLC18B1 (SLC18B1, Homo sapiens, UniProt Q6NT16); binding, radioligand binding): 6.53 µM
COc1cc(Nc2ncc3c(n2)-c2ccc(Cl)cc2C(c2c(F)cccc2OC)=NC3)ccc1C(=O)NCCOCCOCCNC(=O)COc1cccc2c1C(=O)N(C1CCC(=O)NC1=O)C2=O (stereo not drawn)  EC50 (EPHB4 (Homo sapiens, UniProt P54760); binding, kinobead competition; MV4-11 cell lysate): > 30 µM
O=C(COc1cc(Cl)ccc1Cl)Nc1cc(C2CC2)nn1C1CCC(F)(F)CC1  EC50 (Kir3.1/Kir3.4; activator, thallium flux; HEK293): 0.734 µM
Cc1cnc(C)c(C)n1  EC50 (uncharacterized protein (Puma concolor, UniProt A0A6P6H1F7); cAMP, agonist; HEK293 transfected with uncharacterized protein): 346 ± 19.1 µM
C[C@@H]1CC2=C(CN1Cc1cccc(C#N)c1)C(=O)N(Cc1cccc3ccccc13)C1=NCCN12  EC50 (CLPP; peptidase activity, activator; with: Ac-WLA-AMC): 0.104 ± 0.0013 µM
COc1cc(Nc2ncc3c(n2)-c2ccc(Cl)cc2C(c2c(F)cccc2OC)=NC3)ccc1C(=O)O  EC50 (STK17B (Homo sapiens, UniProt O94768); binding, kinobead competition; MV4-11 cell lysate): 4.45 µM
CCc1cc(NC(=O)COc2cc(Cl)ccc2Cl)n(C2CCOCC2)n1  EC50 (Kir3.1/Kir3.4; activator, thallium flux; HEK293): 0.49 µM
Cn1cc(-c2ccc(-c3cncc(Cl)c3N3CCC4(CCNC4=O)CC3)cc2)cn1  log2 fold change (COLO 205; gene expression, microarray, measured: TRAF1 mRNA; concentration not given, 2 h; baseline: untreated cells): 2.8
C[C@H]1C[C@@H](N2C(=N)N[C@](C)(c3cccc(Nc4ccc(C5CC5)nc4)c3Cl)CC2=O)CCO1  EC50 (OPRM1; functional response, agonist; cells): 7.3 µM
O=C(COc1ccc(C(F)(F)F)cc1C(F)(F)F)Nc1cc(C2CC2)nn1CC(F)(F)F  EC50 (Kir3.1/Kir3.4; activator, thallium flux; HEK293): 2.15 µM
CCCCC[C@H](O)/C=C/[C@H]1[C@H](O)CC(=O)[C@@H]1C/C=C\CCCC(=O)O  EC50 (PTGER1 (Homo sapiens, UniProt P34995, S69A); IP1 accumulation, agonist; AD293; EP1 S69A mutant): 0.00203 µM
NCCCNCCCCNCCCN  Kd (MFS-type transporter SLC18B1 (SLC18B1, Homo sapiens, UniProt Q6NT16, D140A); binder): 146 µM
CC[C@@H](C)[C@@H](NC(=O)[C@@H](C)NC(=O)[C@@H](CCCNC(=N)N)NC(=O)[C@@H](Cc1c[nH]c2ccccc12)NC(=O)[C@@H](CCC(N)=O)NC(=O)[C@H](N)C(C)C)C(=O)N[C@H](CCCNC(=N)N)C(=O)N[C@@H](C(=O)N[C@H](CCCNC(=N)N)C(=O)N[C@H](CCCCN)C(=O)N[C@@H](C(=O)N[C@H](CCCNC(=N)N)C(N)=O)[C@H](C)CC)C(C)C  EC50 (Mrgprb2 (Mus musculus, UniProt Q3KNA1); mast cell degranulation, agonist, measured: β-hexosaminidase release; peritoneal mast cells, wild-type mice): 1.33 µM
CC(=O)c1cc([N+](=O)[O-])c(Sc2cccc(Cl)c2Cl)s1  EC50 (USP21 (Homo sapiens, UniProt Q9UK80); enzyme activity, inhibitor): > 50 µM
CCNC(=O)N1CCN(c2nc(NC3CCN(C(=O)[C@@H](CCc4ccc(OC)cc4)NC(=O)[C@@H]4CCCCN4C(=O)C(=O)C(C)(C)CC)CC3)nc(N(Cc3cnn(C)c3)C3CC3)n2)CC1  EC50 (FKBP1A/BRD9 (Homo sapiens, UniProt P62942+Q9H8M2); FKBP12 recruitment, NanoBiT; HEK-293T; 2 h, full-length BRD9): > 5 µM
CCc1cnc(C)c(C)n1  EC50 (uncharacterized protein (Mus musculus, UniProt A0A140T8K4); cAMP, agonist; HEK293 transfected with uncharacterized protein): 355 ± 26.7 µM
CN1CCN2c3ccccc3Cc3ccccc3C2C1 (stereo not drawn)  EC50 (HTR1D (Homo sapiens, UniProt P28221); agonist): 0.372 µM
Cc1cc(NC(=O)C2CCc3ccccc3O2)n(C2CCS(=O)(=O)C2)n1 (stereo not drawn)  EC50 (Kir3.1/Kir3.4; activator, thallium flux; HEK293): > 10 µM
COc1ccc(Br)c(CNc2cccnc2)c1  EC50 (Melatonin receptor type 1B (Mtnr1b, Mus musculus, UniProt Q8CIQ6); cAMP accumulation, agonist, GloSensor cAMP; HEK cells transiently transfected; with: isoproterenol): 0.00589 µM
Cn1cc2c(C(=O)O)ccc(NS(=O)(=O)c3ccc(OCC4CCC4)c(Cl)c3)c2n1  EC50 (OPRM1; agonist): > 10 µM
O=c1nc(N2CCN(CC3CCCCC3)CC2)sc2c([N+](=O)[O-])cc(C(F)(F)F)cc12  IC50 (Cytochrome P450 2D6 (CYP2D6, Homo sapiens, UniProt P10635); 60 (unit not given), pH 7.4): > 10 µM
O=C(COc1ccc(Cl)cc1Cl)Nc1cc(C2CC2)nn1C1CCC(F)(F)CC1  EC50 (Kir3.1/Kir3.4; activator, thallium flux; HEK293): 0.804 µM
CC(C)C[C@H](NC(=O)C[C@H](O)[C@H](CC(C)C)NC(=O)[C@H](Cc1c[nH]cn1)NC(=O)CNC(=O)[C@@H](NC(=O)[C@H](C)NC(=O)[C@H](Cc1c[nH]c2ccccc12)NC(=O)[C@H](CCC(N)=O)NC(=O)[C@@H](Cc1ccccc1)NC(=O)COCCOCCNC(=O)CCC(C(=O)O)N1CCN(CC(=O)O)CCN(CC(=O)O)CCN(CC(=O)O)CC1)C(C)C)C(N)=O (stereo partly drawn) [lutetium-177 labelled]  tissue uptake (BALB/c nu/nu mice, blood; intravenous, 750 pmol, 1 h, with: PA 300 µg): 0.4 ± 0.1 %ID/g
CCc1nccnc1OC  EC50 (uncharacterized protein (Puma concolor, UniProt A0A6P6H1F7); cAMP, agonist; HEK293 transfected with uncharacterized protein): 318 ± 35.1 µM
Nc1ncnc2c1ncn2[C@@H]1O[C@H](COP(=O)(O)OP(=O)(O)OP(=O)(O)O)[C@@H](O)[C@H]1O  EC50 (P2X purinoceptor 4 (P2RX4, Homo sapiens, UniProt Q99571); agonist): 20 ± 2 µM
Cc1cc(NC(=O)C2CCc3cc(F)ccc3O2)n(C2CCS(=O)(=O)C2)n1 (stereo not drawn)  EC50 (Kir3.1/Kir3.4; activator, thallium flux; HEK293): > 10 µM
COc1cc2oc(=O)cc(C)c2cc1CCC(=O)O  Kd (USP16 ZnF-UBD domain): 535 µM
O=C(COc1cccc(Cl)c1Cl)Nc1cc(C2CCC2)nn1C1CCOCC1  EC50 (Kir3.1/Kir3.4; activator): 10 µM
O=C(O)CCn1sc2ccccc2c1=O  Kd (USP16 ZnF-UBD domain): > 1000 µM

Excerpt of the above:
C[C@@H]1CC2=C(CN1Cc1cccc(C#N)c1)C(=O)N(Cc1cccc3ccccc13)C1=NCCN12  EC50 (CLPP; peptidase activity, activator; with: Ac-WLA-AMC): 0.104 ± 0.0013 µM
C[C@@H]1CC2=C(CN1Cc1cccc(C#N)c1)C(=O)N(Cc1ccc3ccccc3c1)C1=NCCN12  EC50 (CLPP; peptidase activity, activator; with: Ac-WLA-AMC): 0.0777 ± 0.0156 µM
O=C(COc1ccc(C(F)(F)F)cc1C(F)(F)F)Nc1cc(C2CC2)nn1CC(F)(F)F  EC50 (Kir3.1/Kir3.4; activator, thallium flux; HEK293): 2.15 µM
C[C@H]1C2=C(CCN1Cc1cccc(C#N)c1)N1CCN=C1N(Cc1ccc(Br)cc1)C2=O  EC50 (CLPP; peptidase activity, activator; with: Ac-WLA-AMC): 0.739 ± 0.0104 µM
COc1cc(Nc2ncc3c(n2)-c2ccc(Cl)cc2C(c2c(F)cccc2OC)=NC3)ccc1C(=O)O  EC50 (STK17B (Homo sapiens, UniProt O94768); binding, kinobead competition; MV4-11 cell lysate): 4.45 µM
